Measurements from different studies.
Every numbered part comes from another study and shows a few of its results, in no order.
Sequence of UniProt P08581 (whole entry, looked up): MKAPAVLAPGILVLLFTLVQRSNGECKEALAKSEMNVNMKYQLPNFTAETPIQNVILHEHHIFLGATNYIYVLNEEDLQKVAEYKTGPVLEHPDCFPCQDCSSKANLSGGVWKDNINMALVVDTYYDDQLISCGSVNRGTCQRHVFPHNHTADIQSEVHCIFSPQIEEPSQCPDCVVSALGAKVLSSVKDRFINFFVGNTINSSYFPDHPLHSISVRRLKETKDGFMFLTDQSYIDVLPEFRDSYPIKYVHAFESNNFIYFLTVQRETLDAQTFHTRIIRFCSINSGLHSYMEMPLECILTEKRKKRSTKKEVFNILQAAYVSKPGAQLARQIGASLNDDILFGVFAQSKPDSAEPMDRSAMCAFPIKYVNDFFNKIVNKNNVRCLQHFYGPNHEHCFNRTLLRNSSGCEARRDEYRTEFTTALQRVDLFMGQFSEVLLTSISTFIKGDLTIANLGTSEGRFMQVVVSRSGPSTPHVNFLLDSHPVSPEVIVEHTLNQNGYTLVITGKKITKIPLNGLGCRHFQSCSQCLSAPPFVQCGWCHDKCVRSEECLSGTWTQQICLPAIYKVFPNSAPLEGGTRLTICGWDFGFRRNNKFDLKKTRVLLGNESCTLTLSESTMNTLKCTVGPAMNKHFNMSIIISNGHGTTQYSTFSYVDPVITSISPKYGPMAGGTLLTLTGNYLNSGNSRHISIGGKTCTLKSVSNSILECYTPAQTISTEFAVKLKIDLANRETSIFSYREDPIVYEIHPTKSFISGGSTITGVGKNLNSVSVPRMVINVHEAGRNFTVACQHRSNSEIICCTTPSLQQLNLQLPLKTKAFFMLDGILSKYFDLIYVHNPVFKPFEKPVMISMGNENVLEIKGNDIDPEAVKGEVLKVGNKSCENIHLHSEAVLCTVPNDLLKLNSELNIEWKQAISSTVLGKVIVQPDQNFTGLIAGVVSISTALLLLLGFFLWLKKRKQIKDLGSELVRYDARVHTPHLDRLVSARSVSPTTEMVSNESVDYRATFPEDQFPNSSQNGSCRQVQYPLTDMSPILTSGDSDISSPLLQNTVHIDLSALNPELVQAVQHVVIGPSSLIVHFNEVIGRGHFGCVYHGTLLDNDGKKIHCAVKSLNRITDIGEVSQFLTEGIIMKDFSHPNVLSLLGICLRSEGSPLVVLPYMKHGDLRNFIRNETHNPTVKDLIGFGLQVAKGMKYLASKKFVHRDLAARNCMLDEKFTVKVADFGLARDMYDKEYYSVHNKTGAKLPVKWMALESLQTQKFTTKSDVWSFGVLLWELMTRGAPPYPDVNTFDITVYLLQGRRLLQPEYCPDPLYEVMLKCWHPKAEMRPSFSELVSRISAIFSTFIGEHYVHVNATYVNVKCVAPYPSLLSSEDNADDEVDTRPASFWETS
Sequence of UniProt P10721 (whole entry, unmodified, looked up): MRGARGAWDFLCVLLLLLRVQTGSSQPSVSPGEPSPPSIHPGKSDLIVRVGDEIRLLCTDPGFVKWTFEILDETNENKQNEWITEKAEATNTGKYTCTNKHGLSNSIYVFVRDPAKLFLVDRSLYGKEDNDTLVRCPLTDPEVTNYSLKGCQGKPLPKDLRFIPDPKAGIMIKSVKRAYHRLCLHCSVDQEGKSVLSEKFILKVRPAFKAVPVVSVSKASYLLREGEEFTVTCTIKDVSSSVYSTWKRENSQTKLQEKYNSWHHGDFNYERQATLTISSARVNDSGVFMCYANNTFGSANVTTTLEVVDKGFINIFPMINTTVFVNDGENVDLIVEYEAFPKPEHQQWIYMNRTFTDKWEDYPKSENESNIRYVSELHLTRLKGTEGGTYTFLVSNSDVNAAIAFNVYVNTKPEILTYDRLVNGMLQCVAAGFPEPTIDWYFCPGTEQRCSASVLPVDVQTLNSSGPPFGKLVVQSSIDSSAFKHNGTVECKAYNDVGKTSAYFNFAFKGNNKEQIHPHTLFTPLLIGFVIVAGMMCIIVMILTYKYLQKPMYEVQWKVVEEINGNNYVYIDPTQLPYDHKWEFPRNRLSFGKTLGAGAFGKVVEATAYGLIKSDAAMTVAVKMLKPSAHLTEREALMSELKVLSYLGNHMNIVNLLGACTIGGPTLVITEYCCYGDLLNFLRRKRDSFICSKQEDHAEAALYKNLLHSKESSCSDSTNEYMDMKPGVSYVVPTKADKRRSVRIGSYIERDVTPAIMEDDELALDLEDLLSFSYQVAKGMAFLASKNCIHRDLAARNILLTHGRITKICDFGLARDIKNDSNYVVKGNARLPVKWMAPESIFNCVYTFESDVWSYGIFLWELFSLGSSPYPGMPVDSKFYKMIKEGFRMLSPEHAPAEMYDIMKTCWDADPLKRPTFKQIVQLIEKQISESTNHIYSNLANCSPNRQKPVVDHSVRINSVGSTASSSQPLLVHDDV

Set 1
SMILES: Cc1c(NC(=O)c2cc(C(N)=O)nc3cc(F)ccc23)c(C(F)(F)F)nn1Cc1ccc(C(C)(C)C)cc1
Read-out: cell-free assay
Technique: competition with immobilised ligand
Tested at: 1 µM
Measurement: remaining binding
target = Serine/threonine-protein kinase NLK (NLK, Homo sapiens, UniProt Q9UBE8); value = 100%
target = Hepatocyte growth factor receptor (MET, Homo sapiens, UniProt P08581); value = 100%
target = Mast/stem cell growth factor receptor Kit (KIT, Homo sapiens, UniProt P10721, D816V); value = 82%
target = Cyclin-dependent kinase-like 1 (CDKL1, Homo sapiens, UniProt Q00532); value = 100%
target = Tyrosine-protein kinase Yes (YES1, Homo sapiens, UniProt P07947); value = 100%
target = Tyrosine-protein kinase ABL1, non-phosphorylated (ABL1, Homo sapiens, UniProt P00519); value = 96%
target = Ephrin type-A receptor 5 (EPHA5, Homo sapiens, UniProt P54756); value = 74%

Set 2
Compound: COc1cc(C(=O)N2CCC(N3CCN(C)CC3)CC2)ccc1Nc1ncc2c(n1)N(C)c1ccccc1C(=O)N2C
Measurement: inhibition
target or system = PIP4K2C (mouse); test = KiNativ ATP probe; test system = mouse brain tissue; conditions = 1 µM, ATP site probe; value = 4.9%
target or system = ZAP70 human; test = KiNativ profiling; test system = human PBMC; conditions = 1 µM, DFG motif site, together with: ATP acyl phosphate probe; value = -4.7%
target or system = MLKL (human); test = probe labelling, KiNativ ADP probe; test system = human PBMC lysate; conditions = concentration not given, LYS1 labelled site; value = 17.5%
target or system = PIK3CD human; test = KiNativ profiling; test system = human PBMC; conditions = 1 µM, ATP site, together with: ATP acyl phosphate probe; value = 10.7%
target or system = mouse ROCK1; test = probe labelling, KiNativ ATP probe; test system = mouse brain lysate; conditions = 1 µM; value = 7.7%
target or system = BARK1 and BARK2 mouse; test = KiNativ profiling; test system = mouse brain lysate; conditions = 1 µM, LYS1 site, together with: ADP acyl phosphate probe; value = 13.9%
target or system = MAP2K4 (mouse); test = probe labelling, KiNativ, refers to: DIkPSNILLDR peptide, LYS2 site; test system = brain tissue lysate (mouse); conditions = 0.1 µM, together with: ATP acyl-phosphate probe; value = -0.8%
target or system = human PBMC; test = probe labeling, inhibitor, KiNativ profiling, refers to: WQGNDIVVkVLK; test system = cell lysate; conditions = 1 µM, LYS1 site, together with: ATP acyl-phosphate probe; value = -8.8%
target or system = mouse PKCι and PKCζ; test = probe labelling, KiNativ ADP probe; test system = mouse brain lysate; conditions = 0.1 µM, LYS1 site IYAMkVVK; value = 4.9%
target or system = SLK (mouse); test = probe labelling, inhibitor, KiNativ ActivX ADP probe; test system = mouse brain lysate; conditions = 0.1 µM, Lys1 site peptide; value = 1.1%

Set 3
Compound: O=C1NC(=O)c2c1c1c3ccccc3[nH]c1c1[nH]c3cc(Br)ccc3c21
Read-out: enzyme activity
Mode: inhibitor
Tested at: 0.5 µM
Relative to: control
Measurement: remaining activity
target = Ribosomal protein S6 kinase alpha-4 (RPS6KA4, Homo sapiens, UniProt O75676); value = 75.9%
target = Hepatocyte growth factor receptor (MET, Homo sapiens, UniProt P08581); value = 76.6%
target = Mitogen-activated protein kinase 11 (MAPK11, Homo sapiens, UniProt Q15759); value = 93.6%
target = cGMP-dependent protein kinase 2 (PRKG2, Homo sapiens, UniProt Q13237); value = 29.7%
target = Mitogen-activated protein kinase 14 (MAPK14, Homo sapiens, UniProt Q16539); value = 90.6%
target = Dual specificity protein kinase CLK3 (CLK3, Homo sapiens, UniProt P49761); value = 93.4%
target = MAP/microtubule affinity-regulating kinase 4 (MARK4, Homo sapiens, UniProt Q96L34); value = 38.7%
target = Dual specificity protein kinase CLK4 (CLK4, Homo sapiens, UniProt Q9HAZ1); value = 49.5%
target = Misshapen-like kinase 1 (MINK1, Homo sapiens, UniProt Q8N4C8); value = 52.2%
target = Serine/threonine-protein kinase MRCK beta (CDC42BPB, Homo sapiens, UniProt Q9Y5S2); value = 84.1%
target = Serine/threonine-protein kinase DCLK2 (DCLK2, Homo sapiens, UniProt Q8N568); value = 87.2%
target = Calcium/calmodulin-dependent protein kinase type IV (CAMK4, Homo sapiens, UniProt Q16566); value = 96.2%
target = Vascular endothelial growth factor receptor 2 (KDR, Homo sapiens, UniProt P35968); value = 67.9%
target = RAC-beta serine/threonine-protein kinase (AKT2, Homo sapiens, UniProt P31751); value = 86.9%

Set 4
Target: DNA polymerase theta, ATPase domain (POLQ, Homo sapiens, UniProt O75417)
Sequence of UniProt O75417 (whole entry, unmodified, looked up): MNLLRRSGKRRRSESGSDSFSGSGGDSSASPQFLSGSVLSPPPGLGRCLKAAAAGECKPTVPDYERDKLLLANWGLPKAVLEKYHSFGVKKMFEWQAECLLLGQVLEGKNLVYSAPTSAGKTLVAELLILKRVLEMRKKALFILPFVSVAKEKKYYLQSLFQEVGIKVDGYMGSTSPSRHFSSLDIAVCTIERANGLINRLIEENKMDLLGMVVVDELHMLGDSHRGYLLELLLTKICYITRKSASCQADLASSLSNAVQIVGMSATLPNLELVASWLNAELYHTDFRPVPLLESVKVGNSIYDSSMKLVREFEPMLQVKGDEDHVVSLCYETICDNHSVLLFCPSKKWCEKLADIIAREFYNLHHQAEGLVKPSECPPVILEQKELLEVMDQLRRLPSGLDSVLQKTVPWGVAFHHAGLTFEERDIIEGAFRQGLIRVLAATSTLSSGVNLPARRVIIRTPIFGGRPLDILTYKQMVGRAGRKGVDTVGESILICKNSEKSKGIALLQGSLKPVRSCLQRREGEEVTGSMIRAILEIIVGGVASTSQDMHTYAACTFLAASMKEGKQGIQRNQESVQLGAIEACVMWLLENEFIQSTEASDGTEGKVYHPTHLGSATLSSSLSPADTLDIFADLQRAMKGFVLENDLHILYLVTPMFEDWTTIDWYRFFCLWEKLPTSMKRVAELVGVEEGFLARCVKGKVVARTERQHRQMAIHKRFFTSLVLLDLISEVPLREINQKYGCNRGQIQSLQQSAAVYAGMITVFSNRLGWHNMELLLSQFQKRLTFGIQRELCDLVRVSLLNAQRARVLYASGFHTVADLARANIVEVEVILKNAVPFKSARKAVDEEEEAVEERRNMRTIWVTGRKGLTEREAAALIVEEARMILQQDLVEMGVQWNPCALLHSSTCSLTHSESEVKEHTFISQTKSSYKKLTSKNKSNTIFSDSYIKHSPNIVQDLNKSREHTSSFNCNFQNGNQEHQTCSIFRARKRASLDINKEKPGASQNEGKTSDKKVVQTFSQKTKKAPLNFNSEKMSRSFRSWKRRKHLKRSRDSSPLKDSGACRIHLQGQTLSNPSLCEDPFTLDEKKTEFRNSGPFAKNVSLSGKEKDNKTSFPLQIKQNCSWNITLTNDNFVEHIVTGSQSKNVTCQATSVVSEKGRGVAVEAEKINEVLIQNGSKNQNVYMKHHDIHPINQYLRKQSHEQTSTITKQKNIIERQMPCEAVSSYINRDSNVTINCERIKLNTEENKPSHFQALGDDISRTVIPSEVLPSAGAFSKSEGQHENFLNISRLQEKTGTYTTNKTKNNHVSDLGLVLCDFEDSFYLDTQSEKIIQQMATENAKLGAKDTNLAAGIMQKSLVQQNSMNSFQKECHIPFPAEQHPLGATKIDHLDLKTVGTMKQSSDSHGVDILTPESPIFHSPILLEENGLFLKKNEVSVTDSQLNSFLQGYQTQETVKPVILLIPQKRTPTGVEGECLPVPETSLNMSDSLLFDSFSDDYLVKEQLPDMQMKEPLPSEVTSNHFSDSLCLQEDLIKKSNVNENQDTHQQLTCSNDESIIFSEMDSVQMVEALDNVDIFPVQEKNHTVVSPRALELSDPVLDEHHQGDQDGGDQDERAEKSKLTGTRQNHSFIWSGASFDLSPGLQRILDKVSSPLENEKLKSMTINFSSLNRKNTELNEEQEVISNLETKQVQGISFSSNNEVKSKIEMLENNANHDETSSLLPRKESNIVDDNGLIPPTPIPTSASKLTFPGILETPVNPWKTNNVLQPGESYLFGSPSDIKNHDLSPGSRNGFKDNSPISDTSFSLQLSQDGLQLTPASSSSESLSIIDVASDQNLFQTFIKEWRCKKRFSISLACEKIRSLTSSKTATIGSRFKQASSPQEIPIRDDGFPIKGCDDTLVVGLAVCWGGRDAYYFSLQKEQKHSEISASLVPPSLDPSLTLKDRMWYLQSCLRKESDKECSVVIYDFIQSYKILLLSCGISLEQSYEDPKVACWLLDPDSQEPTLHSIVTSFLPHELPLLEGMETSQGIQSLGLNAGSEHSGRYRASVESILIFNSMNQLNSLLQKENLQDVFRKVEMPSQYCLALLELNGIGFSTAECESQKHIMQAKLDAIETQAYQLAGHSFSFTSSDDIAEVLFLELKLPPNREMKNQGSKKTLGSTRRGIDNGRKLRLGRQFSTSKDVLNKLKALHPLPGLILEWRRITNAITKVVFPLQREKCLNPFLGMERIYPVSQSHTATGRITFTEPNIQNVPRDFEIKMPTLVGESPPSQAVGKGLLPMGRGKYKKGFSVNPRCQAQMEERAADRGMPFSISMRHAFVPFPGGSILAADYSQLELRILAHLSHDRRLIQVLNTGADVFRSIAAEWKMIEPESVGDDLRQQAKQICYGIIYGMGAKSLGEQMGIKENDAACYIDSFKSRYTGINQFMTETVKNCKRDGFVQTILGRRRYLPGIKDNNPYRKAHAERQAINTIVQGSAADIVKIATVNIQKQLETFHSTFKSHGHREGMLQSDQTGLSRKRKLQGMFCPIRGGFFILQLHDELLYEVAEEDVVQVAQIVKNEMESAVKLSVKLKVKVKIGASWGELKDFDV
Read-out: enzyme activity
Mode: inhibitor
Tested at: 77 µM
Relative to: untreated
Measurement: remaining activity
SMILES = CC1(C)CCC(C)(C)c2cc(NC(=O)c3ccc(C(=O)O)cc3)ccc21; value = 93.9%
SMILES = COc1cc2ncnc(Oc3cccc(NC(=O)Nc4cc(C(C)(C)C(F)(F)F)on4)c3)c2cc1OC; value = 100%
SMILES = COc1cc2c(cc1-c1c(C)noc1C)ncc1[nH]c(=O)n([C@H](C)c3ccccn3)c12; value = 98%
SMILES = O=C(Cn1ccnc1[N+](=O)[O-])NCCO; value = 96.7%
SMILES = Cc1cc2c(cc1S(N)(=O)=O)S(=O)(=O)CCC2; value = 98.2%
SMILES = CNC1(C)C2CCC(C2)C1(C)C (centres unmarked); value = 100%
SMILES = O=C1NC(=O)C(c2c[nH]c3ccccc23)=C1c1c[nH]c2ccccc12; value = 119%
